Experimental data gathered from unrelated publications.
Each numbered part is a random draw from the data of one study; scales do not carry over between parts. Several values in a cell are separate wells, animals, samples, runs or records.
Chain of UniProt P07949 (whole entry, unmodified, looked up): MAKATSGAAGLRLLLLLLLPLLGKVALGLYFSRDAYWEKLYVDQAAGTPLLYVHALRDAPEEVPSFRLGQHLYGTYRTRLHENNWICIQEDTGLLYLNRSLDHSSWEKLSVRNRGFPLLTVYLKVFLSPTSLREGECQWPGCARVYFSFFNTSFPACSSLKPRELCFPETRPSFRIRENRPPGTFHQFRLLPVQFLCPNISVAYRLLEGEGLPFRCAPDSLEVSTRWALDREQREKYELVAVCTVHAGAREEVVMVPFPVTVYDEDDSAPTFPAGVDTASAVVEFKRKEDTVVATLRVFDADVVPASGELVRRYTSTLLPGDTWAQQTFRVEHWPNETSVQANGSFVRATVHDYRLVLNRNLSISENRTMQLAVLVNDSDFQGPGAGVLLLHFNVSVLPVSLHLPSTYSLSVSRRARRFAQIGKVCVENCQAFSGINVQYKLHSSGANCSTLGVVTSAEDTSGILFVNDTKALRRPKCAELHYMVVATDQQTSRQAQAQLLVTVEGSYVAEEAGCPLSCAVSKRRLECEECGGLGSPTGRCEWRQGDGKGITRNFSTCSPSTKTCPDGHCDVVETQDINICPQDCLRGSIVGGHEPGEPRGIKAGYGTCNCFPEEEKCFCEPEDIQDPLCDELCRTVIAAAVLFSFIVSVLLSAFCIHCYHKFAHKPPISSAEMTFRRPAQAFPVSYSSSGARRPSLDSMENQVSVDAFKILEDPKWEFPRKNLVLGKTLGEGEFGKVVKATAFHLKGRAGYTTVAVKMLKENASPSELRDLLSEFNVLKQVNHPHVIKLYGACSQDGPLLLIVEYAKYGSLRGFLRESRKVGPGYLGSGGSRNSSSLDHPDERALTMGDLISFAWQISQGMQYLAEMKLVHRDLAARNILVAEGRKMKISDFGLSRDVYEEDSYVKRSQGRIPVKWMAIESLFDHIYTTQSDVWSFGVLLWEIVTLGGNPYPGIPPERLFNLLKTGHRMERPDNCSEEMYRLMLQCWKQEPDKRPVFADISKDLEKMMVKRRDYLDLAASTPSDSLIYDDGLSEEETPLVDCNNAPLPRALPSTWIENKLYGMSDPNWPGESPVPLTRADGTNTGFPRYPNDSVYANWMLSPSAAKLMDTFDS
Chain of UniProt Q9BVS4 (whole entry, looked up): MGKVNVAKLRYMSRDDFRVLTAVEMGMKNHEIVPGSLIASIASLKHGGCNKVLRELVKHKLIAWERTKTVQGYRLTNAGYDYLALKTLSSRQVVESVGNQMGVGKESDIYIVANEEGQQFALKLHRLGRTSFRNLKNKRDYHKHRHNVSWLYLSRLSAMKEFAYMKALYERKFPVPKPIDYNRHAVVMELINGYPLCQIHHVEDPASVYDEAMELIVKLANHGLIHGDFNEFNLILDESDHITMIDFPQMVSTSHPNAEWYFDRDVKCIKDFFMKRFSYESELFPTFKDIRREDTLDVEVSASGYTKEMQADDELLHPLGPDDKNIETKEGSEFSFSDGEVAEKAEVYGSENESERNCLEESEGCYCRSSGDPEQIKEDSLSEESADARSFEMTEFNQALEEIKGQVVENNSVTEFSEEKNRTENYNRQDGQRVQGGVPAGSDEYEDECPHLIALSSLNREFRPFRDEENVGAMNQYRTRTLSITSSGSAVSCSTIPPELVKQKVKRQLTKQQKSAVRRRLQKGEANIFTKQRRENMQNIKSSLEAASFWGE
Chain of UniProt Q9BZL6 (whole entry, looked up): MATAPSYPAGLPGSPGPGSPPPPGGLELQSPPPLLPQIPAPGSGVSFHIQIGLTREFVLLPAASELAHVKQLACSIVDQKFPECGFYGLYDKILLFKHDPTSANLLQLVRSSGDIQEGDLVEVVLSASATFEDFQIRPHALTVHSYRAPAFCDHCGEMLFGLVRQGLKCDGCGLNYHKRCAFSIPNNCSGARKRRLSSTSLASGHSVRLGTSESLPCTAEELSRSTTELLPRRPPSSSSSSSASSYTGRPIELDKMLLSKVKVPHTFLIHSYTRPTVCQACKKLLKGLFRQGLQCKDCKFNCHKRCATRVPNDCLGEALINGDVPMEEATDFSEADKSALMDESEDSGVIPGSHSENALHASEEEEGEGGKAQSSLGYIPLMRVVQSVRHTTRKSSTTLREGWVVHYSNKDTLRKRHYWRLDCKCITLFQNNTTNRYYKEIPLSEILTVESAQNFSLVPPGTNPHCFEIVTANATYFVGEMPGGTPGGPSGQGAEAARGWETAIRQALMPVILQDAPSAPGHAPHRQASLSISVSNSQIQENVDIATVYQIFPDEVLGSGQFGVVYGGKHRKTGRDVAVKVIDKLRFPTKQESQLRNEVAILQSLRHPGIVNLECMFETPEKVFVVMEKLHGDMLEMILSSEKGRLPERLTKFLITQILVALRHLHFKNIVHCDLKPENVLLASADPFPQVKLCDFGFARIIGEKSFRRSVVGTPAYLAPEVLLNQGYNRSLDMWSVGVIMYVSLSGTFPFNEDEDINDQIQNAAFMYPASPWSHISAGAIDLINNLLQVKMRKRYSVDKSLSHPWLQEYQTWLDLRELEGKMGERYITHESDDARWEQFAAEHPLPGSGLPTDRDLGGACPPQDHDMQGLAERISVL
Chain of UniProt P32298 (whole entry, looked up): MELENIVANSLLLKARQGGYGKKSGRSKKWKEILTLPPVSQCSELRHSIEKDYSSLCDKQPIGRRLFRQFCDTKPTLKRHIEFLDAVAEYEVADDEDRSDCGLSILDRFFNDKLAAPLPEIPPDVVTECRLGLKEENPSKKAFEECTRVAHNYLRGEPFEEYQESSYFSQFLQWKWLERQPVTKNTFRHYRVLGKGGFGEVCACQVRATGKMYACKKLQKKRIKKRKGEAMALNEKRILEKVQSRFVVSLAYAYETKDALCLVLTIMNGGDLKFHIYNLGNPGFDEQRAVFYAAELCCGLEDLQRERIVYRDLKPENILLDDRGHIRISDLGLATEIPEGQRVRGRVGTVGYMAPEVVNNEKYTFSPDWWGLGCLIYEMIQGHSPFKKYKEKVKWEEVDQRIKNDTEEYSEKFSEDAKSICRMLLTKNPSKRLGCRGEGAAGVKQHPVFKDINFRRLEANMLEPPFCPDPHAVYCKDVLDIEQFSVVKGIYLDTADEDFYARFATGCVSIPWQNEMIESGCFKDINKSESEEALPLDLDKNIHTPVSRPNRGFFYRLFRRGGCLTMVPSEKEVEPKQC
Chain of UniProt Q8TD19 (whole entry, looked up): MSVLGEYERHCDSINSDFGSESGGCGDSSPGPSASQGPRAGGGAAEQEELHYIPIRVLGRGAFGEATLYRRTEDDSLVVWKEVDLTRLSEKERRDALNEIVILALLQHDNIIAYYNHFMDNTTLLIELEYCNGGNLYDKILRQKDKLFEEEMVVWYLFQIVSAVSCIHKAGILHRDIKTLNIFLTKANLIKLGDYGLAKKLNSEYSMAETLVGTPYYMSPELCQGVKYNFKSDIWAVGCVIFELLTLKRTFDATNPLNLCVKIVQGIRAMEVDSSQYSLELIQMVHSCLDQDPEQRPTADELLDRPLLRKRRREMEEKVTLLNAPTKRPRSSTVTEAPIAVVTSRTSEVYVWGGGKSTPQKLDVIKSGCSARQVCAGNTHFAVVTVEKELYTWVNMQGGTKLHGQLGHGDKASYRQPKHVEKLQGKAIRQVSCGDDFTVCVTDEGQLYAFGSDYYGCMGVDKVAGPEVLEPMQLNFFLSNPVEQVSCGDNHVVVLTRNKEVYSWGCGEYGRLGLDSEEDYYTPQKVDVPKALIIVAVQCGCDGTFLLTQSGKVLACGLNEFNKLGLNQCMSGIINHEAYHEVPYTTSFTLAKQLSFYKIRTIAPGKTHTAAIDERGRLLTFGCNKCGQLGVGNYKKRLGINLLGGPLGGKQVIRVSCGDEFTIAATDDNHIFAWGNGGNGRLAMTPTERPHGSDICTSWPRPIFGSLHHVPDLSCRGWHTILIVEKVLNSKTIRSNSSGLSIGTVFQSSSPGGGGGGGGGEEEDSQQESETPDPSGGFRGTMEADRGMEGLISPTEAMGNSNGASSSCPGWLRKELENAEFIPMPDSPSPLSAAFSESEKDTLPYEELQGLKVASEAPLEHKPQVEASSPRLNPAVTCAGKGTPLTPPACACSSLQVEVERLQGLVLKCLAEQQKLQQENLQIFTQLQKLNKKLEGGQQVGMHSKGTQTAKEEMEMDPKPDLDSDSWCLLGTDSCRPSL
Chain of UniProt P11802 (whole entry, looked up): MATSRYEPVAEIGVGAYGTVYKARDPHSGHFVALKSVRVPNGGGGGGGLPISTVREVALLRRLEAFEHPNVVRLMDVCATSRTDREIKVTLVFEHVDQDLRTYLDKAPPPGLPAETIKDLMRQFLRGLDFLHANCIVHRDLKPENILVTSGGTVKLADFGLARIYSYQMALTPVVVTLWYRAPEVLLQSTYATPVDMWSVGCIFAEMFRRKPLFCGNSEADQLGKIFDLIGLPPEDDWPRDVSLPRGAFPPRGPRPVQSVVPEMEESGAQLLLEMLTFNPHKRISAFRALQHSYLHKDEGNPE

Series 1 — sample: plasma
Compound: O=C1CCC(N2Cc3cc(C4CCN(Cc5ccccc5)CC4)ccc3C2=O)C(=O)N1 (centres unmarked)
| test system | setting | plasma concentration |
| --- | --- | --- |
| rat | oral, 3 mg/kg, 24 h, below limit of quantitation | not detected |
| male ICR mice | intravenous, 1 mg/kg, 0.25 h | 131 ng/mL |
| Sprague Dawley rat, male | oral, 3 mg/kg, 2 h | 80.2 ng/mL and 74.4 ng/mL |
| male ICR mice | intravenous, 1 mg/kg, 0.5 h | 89 ng/mL |
| Sprague Dawley rat, male | oral, 3 mg/kg, 6 h | 17.4 ng/mL and 16.3 ng/mL |
| male ICR mice | oral, 3 mg/kg, 6 h | 9.95 ng/mL |

Series 2 — observed: enzyme activity; action: inhibitor; tested at: 0.5 µM; relative to: control
Target: RAF proto-oncogene serine/threonine-protein kinase (RAF1, Homo sapiens, UniProt P04049)
Chain of UniProt P04049 (whole entry, looked up): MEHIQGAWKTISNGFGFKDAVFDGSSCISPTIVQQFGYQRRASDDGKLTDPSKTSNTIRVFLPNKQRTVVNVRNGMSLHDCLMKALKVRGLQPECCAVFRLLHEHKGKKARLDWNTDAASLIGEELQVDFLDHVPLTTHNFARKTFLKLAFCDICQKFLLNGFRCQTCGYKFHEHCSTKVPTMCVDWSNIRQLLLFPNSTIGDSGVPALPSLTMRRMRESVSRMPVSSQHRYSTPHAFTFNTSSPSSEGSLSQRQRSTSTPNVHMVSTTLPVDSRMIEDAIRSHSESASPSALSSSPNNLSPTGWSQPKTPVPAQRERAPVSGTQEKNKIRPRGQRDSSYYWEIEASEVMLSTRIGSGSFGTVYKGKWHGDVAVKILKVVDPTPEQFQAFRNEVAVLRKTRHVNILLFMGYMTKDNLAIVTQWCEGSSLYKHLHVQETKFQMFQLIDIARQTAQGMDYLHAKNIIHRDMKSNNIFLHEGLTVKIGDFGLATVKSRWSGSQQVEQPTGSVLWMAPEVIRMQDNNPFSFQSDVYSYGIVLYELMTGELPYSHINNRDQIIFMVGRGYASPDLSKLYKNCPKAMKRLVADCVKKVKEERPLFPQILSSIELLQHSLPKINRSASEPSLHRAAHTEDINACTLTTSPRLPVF
| Compound | remaining activity |
| --- | --- |
| Cn1sc(=O)n(Cc2ccccc2)c1=O | 97.2% |
| COc1ccc(C(=O)Nc2sc3c(c2C(N)=O)CCCC3)cc1OC | 94.8% |
| Oc1ccc(-c2nc(-c3ccncc3)c(-c3ccc(F)cc3)[nH]2)cc1 | 25.8% |
| O=C1NC(=O)C(c2cn(CCCn3ccnc3)c3ccccc23)=C1Nc1ccccc1 | 105% |
| N#CC(C#N)=C(N)/C(C#N)=C/c1ccc(O)cc1 | 86.3% |
| COc1ccc(CNC(=O)Nc2ncc([N+](=O)[O-])s2)cc1 | 94% |
| COc1cc2ncnc(Nc3ccc(Oc4ccccc4)cc3)c2cc1OC | 88.9% |
| Nc1[nH]nc2nc3ccccc3nc12 | 94.4% |
| CC(C)[C@H](CO)Nc1nc(Nc2cc(N)cc(Cl)c2)c2ncn(C(C)C)c2n1 | 113% |
| Cc1cccc(-c2[nH]c(C(C)(C)C)nc2-c2ccc3c(c2)OCO3)n1 | 86.2% |
| COc1ccc(OC)c2c(=S)c3ccccc3[nH]c12 | 88.2% |
| Nc1ccc2ncnc(NCCc3ccc(Oc4ccccc4)cc3)c2c1 | 98.2% |
| O=C(CCCc1ccc(-c2ccccc2F)cc1)Nc1ccc(O)cc1 | 102% |
| O=S(=O)(c1cccc2cnccc12)N1CCCNCC1 | 98.3% |
| O=C(Nc1cccc(Nc2cc(Nc3cccc(C(F)(F)F)c3)ncn2)c1)C1CC1 | 98.4% |
| Cc1ccc(Nc2nccc(N(C)c3ccc4c(C)n(C)nc4c3)n2)cc1S(N)(=O)=O | 9.43% |

Series 3 — cell line: HaCaT; tested at: 100 µM; time: 36 h
| Structure (SMILES) | viability |
| --- | --- |
| CC(C)c1nc(N(C)S(C)(=O)=O)nc(-c2ccc(F)cc2)c1/C=C/[C@@H](O)C[C@@H](O)CC(=O)O | 52.6% and 24.7% |
| Cc1ccccc1N1C(=O)c2cc(S(N)(=O)=O)c(Cl)cc2NC1C (centres unmarked) | 75.6% |
| C[C@]12CC[C@@H]3c4ccc(O)cc4CC[C@H]3[C@@H]1CC[C@@H]2O | 70.4% |
| C[C@]12C=CC(=O)C=C1CC[C@H]1[C@@H]3C[C@@H](O)[C@](O)(C(=O)CO)[C@@]3(C)C[C@H](O)[C@@]12F | 95.7% |
| Cc1cc(N)c2ccccc2[n+]1CCCCCCCCCC[n+]1c(C)cc(N)c2ccccc21 | 45.7% |
| N=C1CCCN1Cc1[nH]c(=O)[nH]c(=O)c1Cl | 80.6% |

Series 4 — observed: cell-free assay; technique: competition with immobilised ligand; tested at: 1 µM
Compound: CN(C)c1ncnc(-c2ccc3nc(Nc4cc(CN5CCN(C(=O)CC(F)(F)F)CC5)ccn4)[nH]c3c2)c1Cl
| target | remaining binding [%] |
| --- | --- |
| Cyclin-dependent kinase 4, with cyclin D1 (CDK4, Homo sapiens, UniProt P11802) | 69 |
| Serine/threonine-protein kinase D2 (PRKD2, Homo sapiens, UniProt Q9BZL6) | 84 |
| Microtubule-associated serine/threonine-protein kinase 1 (MAST1, Homo sapiens, UniProt Q9Y2H9) | 86 |
| Serine/threonine-protein kinase D1 (PRKD1, Homo sapiens, UniProt Q15139) | 100 |
| NUAK family SNF1-like kinase 2 (NUAK2, Homo sapiens, UniProt Q9H093) | 66 |
| Tyrosine-protein kinase ABL1, phosphorylated (ABL1, Homo sapiens, UniProt P00519, T315I) | 51 |
| Testis-specific serine/threonine-protein kinase 3 (TSSK3, Homo sapiens, UniProt Q96PN8) | 62 |
| Phosphatidylinositol 4,5-bisphosphate 3-kinase catalytic subunit alpha isoform (PIK3CA, Homo sapiens, UniProt P42336, C420R) | 88 |
| Macrophage-stimulating protein receptor (MST1R, Homo sapiens, UniProt Q04912) | 98 |
| Tyrosine-protein kinase Lck (LCK, Homo sapiens, UniProt P06239) | 100 |
| G protein-coupled receptor kinase 4 (GRK4, Homo sapiens, UniProt P32298) | 100 |
| Serine/threonine-protein kinase Nek9 (NEK9, Homo sapiens, UniProt Q8TD19) | 100 |
| Serine/threonine-protein kinase PAK 4 (PAK4, Homo sapiens, UniProt O96013) | 100 |
| Proto-oncogene tyrosine-protein kinase receptor Ret (RET, Homo sapiens, UniProt P07949, V804L) | 100 |
| Activin receptor type-1 (ACVR1, Homo sapiens, UniProt Q04771) | 88 |
| Serine/threonine-protein kinase RIO2 (RIOK2, Homo sapiens, UniProt Q9BVS4) | 81 |
| Serine/threonine-protein kinase WNK2 (WNK2, Homo sapiens, UniProt Q9Y3S1) | 59 |
| Mitogen-activated protein kinase 7 (MAPK7, Homo sapiens, UniProt Q13164) | 91 |
| Atypical kinase COQ8B, mitochondrial (COQ8B, Homo sapiens, UniProt Q96D53) | 90 |
| Proto-oncogene tyrosine-protein kinase receptor Ret (RET, Homo sapiens, UniProt P07949) | 77 |
| Tyrosine-protein kinase ITK/TSK (ITK, Homo sapiens, UniProt Q08881) | 100 |
| Tyrosine-protein kinase ABL1, non-phosphorylated (ABL1, Homo sapiens, UniProt P00519, Q252H) | 22 |
| Calcium/calmodulin-dependent protein kinase kinase 1 (CAMKK1, Homo sapiens, UniProt Q8N5S9) | 100 |
| High affinity nerve growth factor receptor (NTRK1, Homo sapiens, UniProt P04629) | 38 |

Further values, each from its own experiment
| Compound | test | test system | setting | quantity | value |
| --- | --- | --- | --- | --- | --- |
| CC(C)n1cnc(-c2ccc(F)cc2)c1-c1ncc(C(=O)Nc2ccc(N3CCN(C)CC3)cc2)[nH]1 | phase 2a clinical trial | patients with idiopathic pulmonary fibrosis | 60 mg once daily, grade ≥3, added: standard of care | patients with serious adverse events | 54.5% |

Repeated from above (series 2):
| Compound | remaining activity |
| --- | --- |
| O=S(=O)(c1cccc2cnccc12)N1CCCNCC1 | 98.3% |
| O=C(Nc1cccc(Nc2cc(Nc3cccc(C(F)(F)F)c3)ncn2)c1)C1CC1 | 98.4% |
| Cc1ccc(Nc2nccc(N(C)c3ccc4c(C)n(C)nc4c3)n2)cc1S(N)(=O)=O | 9.43% |
